Measured values from different studies.
Numbered parts are unrelated; each lists some results of a single study. Positions count from the first letter of the parent shown.

Sample 1
Target: CCNF, cyclin fold, Cln2 fusion (human)
Method: yeast growth competition, sequencing
Matrix: yeast
Notes: strong parent motif
Baseline: not given
Direction: higher = stronger binding
Starting sequence: ORC1 docking peptide (human); PRARKRLELGNLG
| Variant | normalised enrichment score |
| --- | --- |
| G13K | 3.14 |
| A3C | 6.75 |
| L9F | 7.26 |
| K5P | 0.407 |
| L7Q | 0.799 |
| G10K | 1.35 |
| K5F | 1.19 |
| R4Y | 1.24 |
| K5A L7A | 0.841 |
| K5A | 1.12 |
| P1H | 3.3 |
| G10A | 2.85 |
| N11P | 6 |
| R2D | 2.68 |
| L7C | 1.19 |
| A3V | 3.88 |

Sample 2
Target: Sal-like protein 4, full length isoform B (SALL4, Homo sapiens, UniProt Q9UJQ4-2, residues 1-616)
Method: universal PBM
Molecule type: double-stranded DNA, one strand shown
Matrix: in vitro
Concentration: not given
Notes: 8-mer, flanks averaged, mean of replicates
Direction: higher = stronger binding
| Strand | E-score |
| --- | --- |
| CCCTTACG | -0.0958 |
| CGTGGGAG | -0.218 |
| AGATCCCA | -0.00208 |
| AATTTAGC | 0.213 |
| CGCACAGA | -0.0605 |
| GTCAGGCA | -0.0878 |
| CCAGCCGC | -0.319 |
| CAGATGCA | -0.103 |
| ATGGTACG | 0.0902 |
| GGACCATA | -0.0949 |
| AGCAGGTA | -0.047 |
| AAGCGCGG | -0.156 |
| CAATAAAC | 0.319 |
| CGAGCTCC | -0.241 |
| CCCCTCGG | -0.335 |
| GCTAGGAA | -0.0927 |
| AGTTACGG | -0.00418 |
| CTTTGACC | 0.0529 |
| TACTCACA | 0.0879 |
| TAAGCCTA | 0.152 |

Sample 3
Target: ABI1, truncated, D143A, DHFR fusion (Arabidopsis thaliana)
Method: DHFR PCA, deep sequencing
Matrix: yeast
Notes: methotrexate growth selection, single substitutions
Added: (+)-ABA 0.0091 µM
Baseline: wild-type fitted maximum
Direction: higher = stronger binding
Starting sequence: PYL1, truncated, DHFR fusion (Arabidopsis thaliana); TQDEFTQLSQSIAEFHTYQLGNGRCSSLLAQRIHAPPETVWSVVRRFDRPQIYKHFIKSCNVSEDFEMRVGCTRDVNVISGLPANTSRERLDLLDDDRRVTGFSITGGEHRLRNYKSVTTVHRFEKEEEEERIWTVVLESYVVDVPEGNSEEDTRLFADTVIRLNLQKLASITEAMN
| Variant | relative binding score [%] |
| --- | --- |
| N165T | 1.42 |
| S140I | -0.31 |
| H16W | -2.64 |
| R99V | -6.49 |
| I162C | 5.42 |
| S171Y | 20.9 |
| G81Y | 8.01 |
| R132M | 20.4 |
| D96G | -3.27 |
| I12E | -0.814 |
| V136R | -9.41 |
| R69E | 17.2 |
| R49D | 3.44 |
| V44S | -5.07 |
| R98W | -5.78 |

Sample 4
Target: Eukaryotic initiation factor 4A-I (EIF4A1, Homo sapiens, UniProt P60842, residues 1-406, full length assumed)
UniProt P60842, sequence (whole entry, looked up): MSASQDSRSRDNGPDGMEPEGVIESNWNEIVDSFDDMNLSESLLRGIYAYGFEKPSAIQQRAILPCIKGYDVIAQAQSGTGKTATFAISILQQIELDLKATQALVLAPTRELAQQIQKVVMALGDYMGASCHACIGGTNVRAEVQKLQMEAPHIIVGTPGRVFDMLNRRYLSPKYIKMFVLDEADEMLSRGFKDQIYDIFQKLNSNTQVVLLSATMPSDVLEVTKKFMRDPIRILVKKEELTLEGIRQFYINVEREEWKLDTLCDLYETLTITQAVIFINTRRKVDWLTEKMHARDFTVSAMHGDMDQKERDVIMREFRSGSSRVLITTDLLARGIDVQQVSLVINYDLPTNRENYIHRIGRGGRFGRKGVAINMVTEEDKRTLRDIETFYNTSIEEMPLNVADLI
Method: RNA Bind-n-Seq
Molecule type: RNA
Matrix: in vitro
Concentration: not given
Notes: 4-mer, random 30-nt RNA, single round
Added: RocA, ADP, phosphate
Baseline: input library
Direction: higher = stronger binding
| Strand | 4-mer enrichment [fold] |
| --- | --- |
| GCUC | 0.498 |
| UGGC | 0.733 |
| GGAA | 1.49 |
| CGCG | 0.743 |
| UACG | 0.78 |
| CCCG | 0.662 |
| CGAC | 0.621 |
| CCAC | 0.607 |
| AGUG | 1.77 |
| UUCC | 0.541 |
| UAAG | 1.25 |
| UAUU | 0.915 |
| UGGA | 1.88 |
| UAGC | 0.726 |
| CCGG | 0.716 |

Sample 5
Target: UBE2Q1 UBC core domain (UniProt Q7Z7E8)
Method: yeast two-hybrid
Matrix: yeast
Notes: mostly zero background
Baseline: not given
Direction: higher = stronger interaction
B1: CNOT4 RING domain (UniProt O95628); chain MSRSPDAKEDPVECPLCMEPLEIDDINFFPCTCGYQICRFCWHRIRTDENGLCPACRKPYPED
B2: VPS8 RING domain (UniProt Q8N3P4); chain TRGLNPKQDYCSICLQQYKRRQEMADEIIVFSCGHLYHSFCLQNKECTVEFEGQTRWTCYKCSSSNKVGKLSE
B3: HLTF RING domain (UniProt Q14527); chain LILSSGSDEECAICLDSLTVPVITHCAHVFCKPCICQVIQNEQPHAKCPLCRNDIHEDNLLE
B4: ZMYND11 RING domain (UniProt Q15326); chain DEIDWETENHDWYCFECHLPGEVLICDLCFRVYHSKCLSDEFRLRDSSSPWQCPVCRSIKKKNTNKQEM
B5: MKRN3 RING domain (UniProt Q13064); chain FAVQRGMDKVCGICMEVVYEKANPNDRRFGILSNCNHSFCIRCIRRWRSARQFENRIVKSCPQCRVTSELVIPSE
B6: RNF186 RING domain (UniProt Q9NXI6); chain HSGSTECDLECLVCREPYSCPRLPKLLACQHAFCAICLKLLLCVQDNTWSITCPLCRKVTAVPGGLI
B7: TRIM41 RING domain (UniProt Q8WV44); chain PVQTLQEEAVCAICLDYFTDPVSIGCGHNFCRVCVTQLWGGEDEEDRDELDREEEEEDGEEE
B8: NFX1 RING domain (UniProt Q12986); chain IEQLTTEKYECMVCCELVRVTAPVWSCQSCYHVFHLNCIKKWARSPASQADGQSGWRCPACQNVSAHVPNTY
B9: RNF182 RING domain (UniProt Q8N6D2); chain AESQASDELECKICYNRYNLKQRKPKVLECCHRVCAKCLYKIIDFGDSPQGVIVCPFCRFETCLPDDEV
Construct (chain): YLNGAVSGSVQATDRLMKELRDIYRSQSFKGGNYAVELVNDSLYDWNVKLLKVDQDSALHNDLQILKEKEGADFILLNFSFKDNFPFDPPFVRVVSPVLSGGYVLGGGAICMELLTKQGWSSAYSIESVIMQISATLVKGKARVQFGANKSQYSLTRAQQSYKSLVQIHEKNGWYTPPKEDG
| Molecule | lacZ reporter activity |
| --- | --- |
| B1 (CNOT4 RING domain) | 0 |
| FAEQPSVKLCCQLCCSVFKDPVITTCGHTFCRRCALKSEKCPVDNVKLTVVVNNI (TRAF7 RING domain (UniProt Q6Q0C0)) | 0 |
| B2 (VPS8 RING domain) | 0 |
| B3 (HLTF RING domain) | 0 |
| LEALSSDFLACKICLEQLRAPKTLPCLHTYCQDCLAQLADGGRVRCPECRETVPVPPEGV (TRIM56 RING domain (UniProt Q9BRZ2)) | 0 |
| B4 (ZMYND11 RING domain) | 0 |
| B5 (MKRN3 RING domain) | 0 |
| B6 (RNF186 RING domain) | 0 |
| B7 (TRIM41 RING domain) | 0 |
| B8 (NFX1 RING domain) | 0 |
| B9 (RNF182 RING domain) | 0 |
| DDVLTKDAGECVICLEELLQGDTIARLPCLCIYHKSCIDSWFEVNRSCPEHPAD (ZNRF1 RING domain (UniProt Q8ND25)) | 0 |

Sample 6
Target: RING finger protein unkempt homolog, zinc fingers 1-6, GST-SBP tag (UNK, Homo sapiens, UniProt Q9C0B0, residues 30-357)
UniProt Q9C0B0, sequence (30-357, looked up): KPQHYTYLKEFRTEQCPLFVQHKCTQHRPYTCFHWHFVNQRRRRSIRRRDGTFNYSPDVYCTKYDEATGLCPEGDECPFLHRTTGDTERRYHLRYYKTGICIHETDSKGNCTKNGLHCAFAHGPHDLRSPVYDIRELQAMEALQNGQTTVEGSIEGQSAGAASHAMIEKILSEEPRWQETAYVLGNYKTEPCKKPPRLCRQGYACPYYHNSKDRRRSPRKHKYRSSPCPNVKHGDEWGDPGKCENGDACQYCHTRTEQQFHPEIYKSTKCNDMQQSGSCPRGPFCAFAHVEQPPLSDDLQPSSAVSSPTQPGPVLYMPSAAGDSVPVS
Method: RNA Bind-n-Seq
Molecule type: RNA
Matrix: in vitro
Concentration: not given
Notes: RNA with constant flanks, human-mouse chimeric sites, ends assumed
Baseline: input RNA pool
Direction: higher = stronger binding
All sequences stand within: GGGAGUUCUACAGUCCGACGAUC … CAACAGAGGAUUGAGCAUCA
| Strand | bound/input enrichment |
| --- | --- |
| AGGAGGAGGUUAAAGGGUGAGAGUGGGAUGGAGGAUUGUGUCAUGGCUCUGGAGACACUGUUCAGUGUCCUGCUUUCUCUGUGCAGACUGAUGGCCCCUUACACGCCCUUUCUGACUGAG | 0.148 ratio |
| GGCCUGGGACCGUCCUGGGCUAGUACAAAUAGCGGCAGUGGAGGCUCAGAGGAAAGUUUUGUUAGUGGAGGCAGUGGUAGAGGCCGUCAUGUACGGUCCUUUACUCGUAAAAAUCCUUCU | 0.192 ratio |
| AGAUUCCCCCUCCUGAGACCUCCUCCGAAGUUGGAGUCUCUUACAGAUGCCUCAUCCCCUGUUAGUAUUUUAGUUUGGACCACCCAGCCUUGGACAAUUCCCGCCAAUGAAGCUGUUUGC | 4.11 ratio |
| GAUCAUGGAACCAGAAUAGAAAUGAAGAUGAGAUUACCCAGACGAGCCAAAACAGCUGCGCUACAGAAAAAGUAAACUAACCUUGCAGAGUUCCUUAAUGAAGAUACAAGUUAAGAGAGC | 0.655 ratio |
| UAAGUCCUGUGCCAGCACUUCGCUCAUAAAGUUUUAAAUUCUGGACCAAUAGUGUUUAUCUUUAGAAUAUUGUAUCCAAUACUUUGCGUACUAUGUGACUCACUCUUACUGAUAAUAAAA | 9.22 ratio |
| UCUGGUCACACUCGUGUGUAUGGUGUUUGCUUUGUGGAUACUUCACUGGGCAAGUUUUUCAUCGGCCAGUUUUCAGAUGACCGCCACUGUUCCAGAUUUAGGACGCUAGUGGCUCACUAU | 0.204 ratio |
| UUUCUAUUGCAGCAAACGAUGCUAAGAGUGAAGGAUCCUAAGAAGUCCCUGGAUUUUUAUACGAGGGUUCUUGGACUGACCCUCCUGCAGAAGCUUGACUUCCCUGCUAUGAAGUUCUCG | 0.179 ratio |
| GAUCCACAGUGGUCUGAGGAGCAACUCAUUGCUGCAAAAUUCUGUUUUGCUGGCCUUCUUAUAGGCCAGACUGAAGUGGAUAUCAUGAGUCAUGCCACACAAGCUAUUUUUGAAAUUCUG | 0.125 ratio |

Sample 7
Target: PABPC1L2, full length, GST fusion (mouse, UniProt A0ABA7IW68)
Method: RNAcompete
Molecule type: RNA
Matrix: in vitro
Concentration: 20 nM
Notes: 7-mer, probes averaged, single round
Baseline: mean of 7-mers
Direction: higher = stronger binding
Target sequence (chain): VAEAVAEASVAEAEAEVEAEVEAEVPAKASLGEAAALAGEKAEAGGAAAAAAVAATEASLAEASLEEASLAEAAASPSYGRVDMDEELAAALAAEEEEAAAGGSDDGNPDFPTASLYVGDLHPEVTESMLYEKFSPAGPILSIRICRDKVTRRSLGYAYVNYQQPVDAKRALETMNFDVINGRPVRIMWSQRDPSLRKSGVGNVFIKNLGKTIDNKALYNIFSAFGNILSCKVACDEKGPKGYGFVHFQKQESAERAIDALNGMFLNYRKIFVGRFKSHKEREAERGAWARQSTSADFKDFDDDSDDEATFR
| Strand | 7-mer Z-score |
| --- | --- |
| UGUGUGC | -0.282 |
| GGGAGAG | 0.148 |
| CUGCGAA | -0.0754 |
| CGUUGAC | -0.164 |
| CAGAUAC | -0.112 |
| ACUGCAG | 0.0334 |
| CCCUUCG | -0.387 |
| AGAACCC | -0.244 |
| CAAGUCG | -0.282 |
| UGGCCAC | -0.244 |
| GAAUCGC | -0.206 |
| AGUUAGG | 0.0261 |
| UGCCCCC | -0.389 |
| ACUUUCC | -0.284 |
| CUCUAAA | 0.762 |
| GGAGUCU | -0.342 |
| GGGCUGG | 0.187 |

Excerpt of the above (sample 3):
| Variant | relative binding score [%] |
| --- | --- |
| I162C | 5.42 |
| S171Y | 20.9 |
| G81Y | 8.01 |
| R132M | 20.4 |
| D96G | -3.27 |
| I12E | -0.814 |
| V136R | -9.41 |
| R69E | 17.2 |
| R49D | 3.44 |
| V44S | -5.07 |
| R98W | -5.78 |
